Results from different studies.
Every numbered part comes from another study and shows a few of its results, in no order. Positions count from the first letter of the parent shown.

Set 1
Target: CCNE2, cyclin fold, Cln2 fusion (human)
Method: yeast growth competition, sequencing
Medium: yeast
Notes: weak parent motif
Relative to: not given
Direction: higher = stronger binding
Parent: RB1 docking peptide (human); PKPLKKLRFDIEG; partner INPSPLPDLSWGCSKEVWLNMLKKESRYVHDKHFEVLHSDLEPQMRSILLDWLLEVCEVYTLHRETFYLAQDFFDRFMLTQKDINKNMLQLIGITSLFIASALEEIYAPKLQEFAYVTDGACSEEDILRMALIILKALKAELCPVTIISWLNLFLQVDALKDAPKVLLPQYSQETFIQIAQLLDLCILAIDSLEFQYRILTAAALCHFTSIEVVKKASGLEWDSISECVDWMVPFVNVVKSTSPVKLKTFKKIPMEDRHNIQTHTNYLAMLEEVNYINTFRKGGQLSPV
Under “normalised enrichment score”, `PHPLKKLRFDIEG [K2H]` is recorded as 0.876.
For `PKSLKKLRFDIEG [P3S]`, “normalised enrichment score” read 1.84.
Under “normalised enrichment score”, `PKPLKGLRFDIEG [K6G]` is recorded as 0.452.
`PKPLKKNRFDIEG [L7N]` — result for “normalised enrichment score”: 0.427.
`PKPLKKLRFDIHG [E12H]`: “normalised enrichment score” 0.427.
Under “normalised enrichment score”, `PKPLKKLHFDIEG [R8H]` is recorded as 0.177.

Set 2
Target: RNA binding protein fox-1 homolog 2, RRM domain, GST-SBP tag (RBFOX2, Homo sapiens, UniProt O43251-10, residues 100-194)
Method: RNA Bind-n-Seq
Molecule type: RNA
Medium: in vitro
Tested at: 365 nM
Notes: natural RNA segment, single round, ends assumed
Relative to: no-protein control
Direction: higher = stronger binding
Construct (chain): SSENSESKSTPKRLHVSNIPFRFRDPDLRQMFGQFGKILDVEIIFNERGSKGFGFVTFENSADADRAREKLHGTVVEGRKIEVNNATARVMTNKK
For `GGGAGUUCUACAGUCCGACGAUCGGUUUAAUAUUUGCAUUUUCGUGCUUUUAUUUUCUCCUUCCAUUCAUAAGUAUAUACUUGAAAGUACAUCUGUAGCCUAUGAUUUGAGUCUCUUGAAGUUCUAGGAAGAGUGGAAUUCUCGGGUGCCAA`, “RBNS enrichment (R)” read 0.317.
`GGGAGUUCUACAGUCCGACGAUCGGGAAAAGCAGCGUUCCCUCUCCUUAAGCCACAGGCAGAUUGUGUAAAACAGGAACAGCAGCGGCUGUUUCAGCUGUGGGAAACGAGCUUUGCUUUUAUAUAUAUAUAUAUGGAAUUCUCGGGUGCCAA`: “RBNS enrichment (R)” 0.457.
`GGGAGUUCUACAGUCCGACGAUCACAAUCCCAGCAUUUGGGAAGCUGAGGCAAGCAGAUUACCACAAGUUUGAAACCAACCUUGGCUGCAUACAGAUGAUGUAUAUAUAGGCCAGCAUGGGUUACACUGUCUGUGGAAUUCUCGGGUGCCAA` — result for “RBNS enrichment (R)”: 0.914.
`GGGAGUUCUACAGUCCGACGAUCCGUCUCUGCUAAAAAUACAAAAAAUUAGCCAGAUGUGGUGGUGCACACCUGUAGUCCCAACUAUUCGGCAGGCUGAGGCAGUAGAAUCGCUUGAACCUGGGAGGCGGAGAUGGAAUUCUCGGGUGCCAA`: “RBNS enrichment (R)” 0.392.
Under “RBNS enrichment (R)”, `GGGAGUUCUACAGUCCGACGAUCAUAGUAUUUCUGAGUUGAAAGUCGAUGGUGCAAAUAUGUAUAUAACGUACUGUAUUUUUACAAUGAUCGUCGCAUGGCUCUCCCACCCCCUUUUGUACUCAGUAUCUGUCUGGAAUUCUCGGGUGCCAA` is recorded as 0.408.
For `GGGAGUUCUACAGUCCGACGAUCACUCUUGCAGGCUAUAUAUGUGAAGAAUAGUUGUGAUGUAGAUGGAAAGAAAAUGUAUUAUUGUGUGUAUCAUUUGUGUGCUUUCAUAGCAAAAAAUGUGUUUCAGUUGUUGGAAUUCUCGGGUGCCAA`, “RBNS enrichment (R)” read 1.46.
`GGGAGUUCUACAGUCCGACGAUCACUGAAUAUUAUACAUUAUUGUAACAUGAACCUAAAAUUAAUUUAACAGGGCCCAAAUUCAUAGGAAUGUAACAGUCAUUGAAAGCCUAUUCUUUUCACCUCUCAUCACAUGGAAUUCUCGGGUGCCAA`: “RBNS enrichment (R)” 0.362.
Under “RBNS enrichment (R)”, `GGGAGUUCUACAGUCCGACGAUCUAUGAUGGCAGGUCCUCUGUUGCAAACUCAGUUCCAAAGUCACAGGAAGAAAGCAGAAAGUUCAACUUCCAAAGGGUUAGGACUCUCCACUCAAUGUCUUAGGUCAGGAGUGGAAUUCUCGGGUGCCAA` is recorded as 0.184.
Under “RBNS enrichment (R)”, `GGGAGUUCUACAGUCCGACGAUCUAUCCAUGCUAGAACCAUGGUAUCCCAUGGGAAGCAGACAGCAGGCAAGGAGAGGCGUGGACACCGGCCACAGGUGUGCCCGAGCCCCAUCCUACCUGAGUCUCUGUCUCUGGAAUUCUCGGGUGCCAA` is recorded as 0.322.

Set 3
Target: ABI1, truncated, D143A, DHFR fusion (Arabidopsis thaliana)
Method: DHFR PCA, deep sequencing
Medium: yeast
Notes: methotrexate growth selection, single substitutions
With: (+)-ABA 0 µM
Relative to: wild-type fitted maximum
Direction: higher = stronger binding
Parent: PYL1, truncated, DHFR fusion (Arabidopsis thaliana); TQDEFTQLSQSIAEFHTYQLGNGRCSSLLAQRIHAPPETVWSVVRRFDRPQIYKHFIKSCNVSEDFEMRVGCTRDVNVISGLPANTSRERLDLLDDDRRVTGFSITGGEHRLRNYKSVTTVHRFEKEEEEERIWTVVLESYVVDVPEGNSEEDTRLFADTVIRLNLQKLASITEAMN; partner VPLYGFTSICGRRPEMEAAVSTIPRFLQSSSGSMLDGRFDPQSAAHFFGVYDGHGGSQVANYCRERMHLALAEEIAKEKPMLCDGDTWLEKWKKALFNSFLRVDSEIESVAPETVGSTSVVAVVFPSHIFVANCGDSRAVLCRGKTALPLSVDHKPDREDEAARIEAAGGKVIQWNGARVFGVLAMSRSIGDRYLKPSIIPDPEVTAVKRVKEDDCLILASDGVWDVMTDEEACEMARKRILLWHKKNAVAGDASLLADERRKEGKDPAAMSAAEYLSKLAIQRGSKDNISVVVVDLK
Under “relative binding score”, `Q51G` is recorded as 1.17%.
For `F66H`, “relative binding score” read 2.33%.
`L8H`: “relative binding score” -14.5%.
Under “relative binding score”, `G102R` is recorded as -0.783%.

Further values, each from its own experiment
With `PhoQ, residues 284 288 289 292 302 303 SSTLLI` the fold induction was 3.49 (PhoP, residues 12 14 15 18 19 STWGI (Escherichia coli, UniProt P23836); Sort-seq, item: YFP reporter; E. coli; PhoQ-PhoP variant library, with: 10 µM Mg2+; relative to: high Mg2+ state, higher = stronger signaling).

Some of these lines once more (set 2):
`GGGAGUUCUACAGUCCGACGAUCCGUCUCUGCUAAAAAUACAAAAAAUUAGCCAGAUGUGGUGGUGCACACCUGUAGUCCCAACUAUUCGGCAGGCUGAGGCAGUAGAAUCGCUUGAACCUGGGAGGCGGAGAUGGAAUUCUCGGGUGCCAA`: “RBNS enrichment (R)” 0.392.
